# Measurements collected from several papers.
# Protocols differ between the studies behind these lines. Numbers after ± are the reported error.
Structure (SMILES),matrix,concentration,added,half-life
CCOc1ccccc1Nc1nnc(SCC(=O)Nc2cc(F)ccc2F)s1,PBS,,,> 7.5 h
Cc1n[nH]c(C)c1CCOC(=O)c1cccc2c1oc(=O)n2C,PBS,,,> 5 h
O=C(O)c1cccc(-c2nc(-c3ccccc3F)c3sccn23)c1,human liver microsomes,1 µM,,0.765 h
Cc1ccccc1OCCCSCc1nc2ccccc2[nH]1,human liver microsomes 0.5 mg/mL,10 µM,,0.101 h
COc1ccc2c(c1)CN(C(=O)OC(C(F)(F)F)C(F)(F)F)C2,mouse liver microsomes,,NADPH,0.0833 h
Cc1c(-c2ccccc2)nn2c(=O)cc(-c3cccc(-c4nnn[nH]4)c3)[nH]c12,mouse liver microsomes,1 µM,,3.27 h
COc1ccc(CC(=O)OCc2ccc(-n3cccn3)cc2)cc1F,human plasma,,,> 2.5 h
O=C(CC1Cc2ccccc2C1)N[C@H](CN1CCC1)[C@H](O)c1ccc(OC(F)(F)F)cc1,mouse liver microsomes,1 µM,,> 1 h
O=C(NC1CC=C(c2cc3c(Nc4cc5ncsc5cc4F)ncnc3s2)CC1)NC1CCCCC1 (centres unmarked),human liver microsomes,1 µM,,> 2 h
COc1cccc(-c2cc(-n3nncc3-c3ccc(C(F)(F)F)cc3)ccc2OC)c1,human liver microsomes,,,1.37 ± 0.16 h
CSc1cc(NC(=O)c2ccccn2)ccc1F,rat liver microsomes,,,0.0955 h

# A few entries again:
Structure (SMILES),matrix,concentration,added,half-life
CCOc1ccccc1Nc1nnc(SCC(=O)Nc2cc(F)ccc2F)s1,PBS,,,> 7.5 h
